Published values of several laboratories.
Compare with care: the assays were run in different laboratories. Values joined by “and” are separate records of one study, mostly repeats; a detail may differ. pIC50: −log10 of the molar value.
AHR: Aryl hydrocarbon receptor (AHR, Delphinapterus leucas, UniProt Q95LD9)
Sequence of UniProt Q95LD9 (whole entry, looked up): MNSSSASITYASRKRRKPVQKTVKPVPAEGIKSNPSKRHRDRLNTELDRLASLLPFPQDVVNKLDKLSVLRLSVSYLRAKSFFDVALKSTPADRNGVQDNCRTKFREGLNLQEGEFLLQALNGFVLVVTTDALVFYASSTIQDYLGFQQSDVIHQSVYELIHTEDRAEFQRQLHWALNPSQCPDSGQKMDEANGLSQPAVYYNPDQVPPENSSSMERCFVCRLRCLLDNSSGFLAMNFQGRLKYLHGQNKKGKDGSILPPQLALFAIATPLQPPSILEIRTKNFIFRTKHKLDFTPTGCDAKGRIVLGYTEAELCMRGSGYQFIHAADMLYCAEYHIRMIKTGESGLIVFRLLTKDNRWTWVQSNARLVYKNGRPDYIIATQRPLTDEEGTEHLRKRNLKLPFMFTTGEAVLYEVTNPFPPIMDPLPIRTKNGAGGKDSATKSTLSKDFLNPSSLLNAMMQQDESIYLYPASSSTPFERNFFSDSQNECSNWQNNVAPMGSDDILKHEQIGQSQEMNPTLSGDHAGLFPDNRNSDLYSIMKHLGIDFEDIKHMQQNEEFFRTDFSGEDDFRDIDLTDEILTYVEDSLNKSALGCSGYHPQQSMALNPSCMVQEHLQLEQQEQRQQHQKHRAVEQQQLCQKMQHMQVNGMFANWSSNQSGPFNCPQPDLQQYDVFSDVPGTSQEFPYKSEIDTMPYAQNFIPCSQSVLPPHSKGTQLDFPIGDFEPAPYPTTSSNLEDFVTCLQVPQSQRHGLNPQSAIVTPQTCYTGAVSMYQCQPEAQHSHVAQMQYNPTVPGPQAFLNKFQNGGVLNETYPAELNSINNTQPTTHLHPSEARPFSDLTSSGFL
CYP2C19: Cytochrome P450 2C19 (CYP2C19, Homo sapiens, UniProt P33261)
Sequence of UniProt P33261 (whole entry, looked up): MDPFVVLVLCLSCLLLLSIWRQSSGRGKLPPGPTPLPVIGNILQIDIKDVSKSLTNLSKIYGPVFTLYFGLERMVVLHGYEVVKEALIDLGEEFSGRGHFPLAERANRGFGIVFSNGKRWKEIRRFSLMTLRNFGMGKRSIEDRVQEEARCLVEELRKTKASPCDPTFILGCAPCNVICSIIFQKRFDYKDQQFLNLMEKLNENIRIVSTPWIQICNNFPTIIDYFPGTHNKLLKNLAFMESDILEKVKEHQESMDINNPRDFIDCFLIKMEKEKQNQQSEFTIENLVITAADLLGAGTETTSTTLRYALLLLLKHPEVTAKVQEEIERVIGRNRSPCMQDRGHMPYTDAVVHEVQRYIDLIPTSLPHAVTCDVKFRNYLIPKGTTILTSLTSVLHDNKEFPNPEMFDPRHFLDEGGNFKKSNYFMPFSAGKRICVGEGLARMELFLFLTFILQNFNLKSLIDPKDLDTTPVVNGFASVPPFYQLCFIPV
CYP2C9: Cytochrome P450 2C9 (CYP2C9, Homo sapiens, UniProt P11712)
Sequence of UniProt P11712 (whole entry, looked up): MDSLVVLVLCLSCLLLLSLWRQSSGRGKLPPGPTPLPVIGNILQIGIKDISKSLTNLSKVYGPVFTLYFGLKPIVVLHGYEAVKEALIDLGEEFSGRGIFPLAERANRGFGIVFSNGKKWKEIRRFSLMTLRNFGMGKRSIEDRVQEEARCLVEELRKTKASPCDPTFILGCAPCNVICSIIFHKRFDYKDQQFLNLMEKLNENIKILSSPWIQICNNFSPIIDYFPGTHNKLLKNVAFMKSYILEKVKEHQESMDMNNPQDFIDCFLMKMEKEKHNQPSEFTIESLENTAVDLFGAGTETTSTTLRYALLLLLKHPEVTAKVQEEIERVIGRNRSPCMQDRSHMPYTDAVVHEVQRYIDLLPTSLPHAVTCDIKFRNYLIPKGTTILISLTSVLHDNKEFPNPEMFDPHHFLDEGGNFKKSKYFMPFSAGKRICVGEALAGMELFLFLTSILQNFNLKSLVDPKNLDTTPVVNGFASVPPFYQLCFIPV
Sequence of UniProt P08183 (whole entry, looked up): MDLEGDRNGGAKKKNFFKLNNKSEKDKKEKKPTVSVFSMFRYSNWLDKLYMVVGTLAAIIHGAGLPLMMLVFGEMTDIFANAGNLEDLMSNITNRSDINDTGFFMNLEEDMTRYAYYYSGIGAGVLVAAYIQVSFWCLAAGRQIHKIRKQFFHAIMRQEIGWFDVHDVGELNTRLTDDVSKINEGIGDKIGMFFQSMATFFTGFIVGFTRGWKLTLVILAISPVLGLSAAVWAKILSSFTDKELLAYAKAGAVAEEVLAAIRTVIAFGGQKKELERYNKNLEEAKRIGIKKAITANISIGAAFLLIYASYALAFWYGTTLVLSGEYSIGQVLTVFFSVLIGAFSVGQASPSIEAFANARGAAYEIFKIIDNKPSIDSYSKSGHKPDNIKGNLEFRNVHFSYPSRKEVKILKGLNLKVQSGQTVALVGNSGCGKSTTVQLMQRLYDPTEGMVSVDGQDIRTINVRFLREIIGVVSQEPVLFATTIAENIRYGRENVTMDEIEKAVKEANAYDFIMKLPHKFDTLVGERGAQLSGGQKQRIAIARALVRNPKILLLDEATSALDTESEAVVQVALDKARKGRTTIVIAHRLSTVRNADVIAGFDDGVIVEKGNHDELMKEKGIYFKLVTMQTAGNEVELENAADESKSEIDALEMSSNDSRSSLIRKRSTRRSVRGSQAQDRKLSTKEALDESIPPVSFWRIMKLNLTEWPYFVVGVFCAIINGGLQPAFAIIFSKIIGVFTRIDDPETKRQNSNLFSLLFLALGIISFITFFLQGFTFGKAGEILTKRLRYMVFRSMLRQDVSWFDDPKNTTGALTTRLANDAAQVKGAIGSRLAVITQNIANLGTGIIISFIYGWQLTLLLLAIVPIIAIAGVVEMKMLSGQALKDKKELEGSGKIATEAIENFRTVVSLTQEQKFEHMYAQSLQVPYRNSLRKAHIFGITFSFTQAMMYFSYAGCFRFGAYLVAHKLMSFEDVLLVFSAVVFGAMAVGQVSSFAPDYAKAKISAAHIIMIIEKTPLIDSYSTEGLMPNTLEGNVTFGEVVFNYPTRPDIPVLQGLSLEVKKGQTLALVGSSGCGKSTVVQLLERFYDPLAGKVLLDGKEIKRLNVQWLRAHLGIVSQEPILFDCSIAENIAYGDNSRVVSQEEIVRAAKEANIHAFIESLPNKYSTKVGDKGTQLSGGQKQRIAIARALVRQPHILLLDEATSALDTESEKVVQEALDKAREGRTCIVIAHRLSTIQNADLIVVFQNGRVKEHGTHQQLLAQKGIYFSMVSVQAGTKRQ
Sequence of UniProt Q9NPD5 (whole entry, looked up): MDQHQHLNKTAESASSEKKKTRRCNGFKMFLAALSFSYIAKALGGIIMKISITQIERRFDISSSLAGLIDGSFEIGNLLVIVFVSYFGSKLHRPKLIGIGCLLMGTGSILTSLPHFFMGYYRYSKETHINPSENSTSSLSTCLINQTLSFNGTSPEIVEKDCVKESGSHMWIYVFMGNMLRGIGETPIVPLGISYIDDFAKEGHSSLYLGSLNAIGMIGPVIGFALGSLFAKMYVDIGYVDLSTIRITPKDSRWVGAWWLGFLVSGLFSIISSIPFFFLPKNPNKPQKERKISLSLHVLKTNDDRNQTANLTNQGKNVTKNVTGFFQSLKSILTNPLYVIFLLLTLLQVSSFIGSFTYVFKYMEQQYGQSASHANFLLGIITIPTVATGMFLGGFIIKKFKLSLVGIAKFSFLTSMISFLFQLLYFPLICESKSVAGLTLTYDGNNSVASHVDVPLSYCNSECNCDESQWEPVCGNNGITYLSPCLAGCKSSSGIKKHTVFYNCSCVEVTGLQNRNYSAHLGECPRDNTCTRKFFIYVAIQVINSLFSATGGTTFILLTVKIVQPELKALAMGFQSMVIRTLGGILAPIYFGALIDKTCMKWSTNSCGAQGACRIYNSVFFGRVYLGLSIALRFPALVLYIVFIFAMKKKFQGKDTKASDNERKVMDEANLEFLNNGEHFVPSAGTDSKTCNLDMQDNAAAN

Clc1cc(-c2cc(Cl)c(Cl)c(Cl)c2)cc(Cl)c1Cl  pIC50 (AHR; binding, competitor; in vitro expressed receptor, with: [3H]TCDD): 7.60
O=S(=O)(O)C(F)(F)C(F)(F)C(F)(F)C(F)(F)C(F)(F)C(F)(F)C(F)(F)C(F)(F)F  pIC50 (CYP2C19; enzyme activity, inhibitor, fluorescence): 4.33
CN[C@@](C)(C[18F])C(=O)O  tracer uptake (DU-145 tumour model; host not given, tumour; 1 h, tumour-bearing): 4.5 %ID/g
O=C(O)C(F)(OC(F)(F)C(F)(F)C(F)(F)F)C(F)(F)F (centres unmarked)  pIC50 (CYP2C19; enzyme activity, inhibitor; Supersomes, with: 7-BFC substrate): < 4.00
Clc1ccc(-c2ccc(Cl)c(Cl)c2Cl)cc1Cl  pIC50 (AHR; binding, competitor; in vitro expressed receptor, with: [3H]TCDD): 5.45
COc1ccc2c3c1O[C@H]1C[C@@H](OC(=O)CCCCCCCCC(=O)O[C@H]4C=C[C@@]56CCN(C)Cc7ccc(OC)c(c75)O[C@H]6C4)C=C[C@@]31CCN(C)C2  pIC50 (ATP-dependent translocase ABCB1 (ABCB1, Homo sapiens, UniProt P08183); rhodamine efflux, inhibitor, rhodamine accumulation; MCF7/DX1): ~6.10 and 6.10
C[C@@H]1CC[C@]2(C(=O)O[C@@H]3O[C@H](CO)[C@@H](O)[C@H](O)[C@H]3O)CC[C@]3(C)C(=CC[C@@H]4[C@@]5(C)CC[C@H](O)[C@@](C)(CO)[C@@H]5CC[C@]43C)[C@@H]2[C@]1(C)O  pIC50 (CYP3A4/5; enzyme activity, inhibitor, probe cocktail incubation; pooled human liver microsomes; 20 min, with: midazolam 1.535 µM and testosterone 17.34 µM): < 4.30
N#Cc1ccc(C(O)c2ccc(C#N)cc2)cc1  pIC50 (CYP2C19; inhibitor): 4.71
CC(=O)CC(c1ccccc1)c1c(O)c2cccc(O)c2oc1=O (centres unmarked)  pIC50 (CYP2C9; enzyme activity, inhibitor, luciferase): 4.80
Clc1ccc(-c2cc(Cl)c(Cl)cc2Cl)cc1Cl  pIC50 (AHR; binding, competitor; in vitro expressed receptor, with: [3H]TCDD): 5.20
CC(=O)C(O)C(c1ccccc1)c1c(O)c2ccccc2oc1=O (centres unmarked)  pIC50 (CYP2C9; enzyme activity, inhibitor, luciferase): 5.80
Clc1ccc(-c2cc(Cl)c(Cl)c(Cl)c2)cc1  pIC50 (AHR; binding, competitor; in vitro expressed receptor, with: [3H]TCDD): 7.05
CC1=CC(=O)c2ccccc2C1=O  pIC50 (CYP panel, human recombinant; enzyme activity, inhibitor; 10 min, pH 7.4, with: fluorogenic substrates): 5.01 to 5.63
N#Cc1ccc(N2N=C3c4ccc(C(=O)N5CCC(O)CC5)nc4CC[C@@H]3[C@@H]2C2CCCC2)cc1Cl  pIC50 (Solute carrier organic anion transporter family member 1B3 (SLCO1B3, Homo sapiens, UniProt Q9NPD5); transporter uptake, inhibitor): 4.67

Some of these lines once more:
Clc1ccc(-c2ccc(Cl)c(Cl)c2Cl)cc1Cl  pIC50 (AHR; binding, competitor; in vitro expressed receptor, with: [3H]TCDD): 5.45
